Assay results of several laboratories.
Numbered parts are unrelated; each lists some results of a single study. Values joined by “and” are separate records of one study, mostly repeats; a detail may differ.

Block 1
Target: Bromodomain-containing protein 4, BD1 (BRD4, Homo sapiens, UniProt O60885)
Read-out: acetyl-histone H4 peptide binding
Method: AlphaScreen displacement
Concentration: 50 µM
Compound	inhibition [%]
CCOc1ccc(NC=C2C(=O)NC(=O)N(c3ccccc3)C2=O)cc1	15.2
COC(=O)C1(O)CC2OC1(C)n1c3ccccc3c3c4c(c5c6ccccc6n2c5c31)C(=O)NC4 (centres unmarked)	30.8
COc1ccc(NC=C2C(=O)NC(=O)N(C)C2=O)cc1	19.1
CCn1cnc2c(Nc3cccc(Cl)c3)nc(N[C@@H]3CCCC[C@@H]3N)nc21	45.8
COC(=O)c1ccc(NC=C2C(=O)NC(=O)N(C)C2=O)cc1	5.9
C=CCN1C(=O)C(=Cc2ccc(OCC(=O)O)cc2)C(=O)N=C1O	8.9

Block 2
Organism: Sarcocystis neurona
Read-out: parasite growth
Concentration: 10 µM
Time: 96 h
Notes: first screen
Reference: untreated
SMILES	log2 fold change
c1cncc([C@@H]2CCCN2)c1	-0.5
CC(C)[C@]12O[C@H]1[C@@H]1O[C@]13[C@]1(O[C@H]1C[C@H]1C4=C(CC[C@@]13C)C(=O)OC4)[C@@H]2O	-3.21
CCC1(c2ccc(N)cc2)CCC(=O)NC1=O (centres unmarked)	0.32
O=C(c1ccc(F)cc1)C1CCN(CCn2c(=S)[nH]c3ccccc3c2=O)CC1	-5.06
Oc1c(Cl)cc(Cl)c(Cl)c1Cc1c(O)c(Cl)cc(Cl)c1Cl	-3.29
O=C(O)C(Cl)Cl	0.26
NC1=NC(=O)C(c2ccccc2)O1 (centres unmarked)	0.017
CN1C(=O)CN=C(c2ccccc2)c2cc(Cl)ccc21	-3.28

Block 3
Compound: CC[C@@H](C)c1nc2cc(Nc3ccnc4ccc(S(=O)(=O)C(C)C)cc34)ccc2s1.Cl
Method: CCK-8
cell line	concentration	together with	survival
L929 RIPK3-/- reexpressing RIPK3 K51A/R69H	12.5 µM	zVAD	94.4% and 102% and 94.5% and 99.2% and 97.2%
L929 RIPK3-/- reexpressing RIPK3 K51A	25 µM	zVAD	87.2% and 63.3% and 109% and 65.5% and 111%
L929 RIPK3-/- reexpressing RIPK3 K51A/R69H	6.25 µM		99.7% and 89.4% and 98.2% and 92.6% and 91.3%
L929 RIPK3-/- reexpressing RIPK3 K51A/R69H	3.125 µM	zVAD	102% and 100% and 101%
L929 RIPK3-/- reexpressing RIPK3 K51A/R69H	1.563 µM	zVAD	98.9% and 97.3% and 99.5% and 101% and 99.4%

Other studies, line by line
Structure (SMILES)	organism	species	dose	time	direction	endpoint	value
CNC(=O)c1ccc(-c2cnn3ccc(C(=O)N(C)c4ccc(Cl)c(C(=O)OC)c4)cc23)cc1	Cryptosporidium parvum	neonatal calves	dose not given	7 days	direction not given	fecal score AUC	3.5 and 4 and 6 and 6.25 and 2.5 and 5.25

A few entries again (block 3):
cell line	concentration	together with	survival
L929 RIPK3-/- reexpressing RIPK3 K51A/R69H	6.25 µM		99.7% and 89.4% and 98.2% and 92.6% and 91.3%
